Experimental data gathered from unrelated publications.
A part holds a random share of what one study measured. Values joined by “and” are separate records of one study, mostly repeats; a detail may differ.
Sequence of UniProt Q9UQM7 (whole entry, looked up): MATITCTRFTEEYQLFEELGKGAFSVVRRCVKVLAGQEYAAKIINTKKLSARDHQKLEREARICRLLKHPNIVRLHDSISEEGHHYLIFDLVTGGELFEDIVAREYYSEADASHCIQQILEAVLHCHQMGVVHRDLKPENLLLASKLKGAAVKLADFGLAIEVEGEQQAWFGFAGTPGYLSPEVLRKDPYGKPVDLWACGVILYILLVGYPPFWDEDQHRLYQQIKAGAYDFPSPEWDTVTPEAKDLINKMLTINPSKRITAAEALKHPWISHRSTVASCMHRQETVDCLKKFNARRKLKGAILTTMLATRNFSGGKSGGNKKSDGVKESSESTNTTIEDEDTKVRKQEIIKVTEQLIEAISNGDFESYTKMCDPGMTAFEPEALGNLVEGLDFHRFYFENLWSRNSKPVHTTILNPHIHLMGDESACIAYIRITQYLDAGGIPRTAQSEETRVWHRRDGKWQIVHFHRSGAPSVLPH
Sequence of UniProt Q99640 (whole entry, looked up): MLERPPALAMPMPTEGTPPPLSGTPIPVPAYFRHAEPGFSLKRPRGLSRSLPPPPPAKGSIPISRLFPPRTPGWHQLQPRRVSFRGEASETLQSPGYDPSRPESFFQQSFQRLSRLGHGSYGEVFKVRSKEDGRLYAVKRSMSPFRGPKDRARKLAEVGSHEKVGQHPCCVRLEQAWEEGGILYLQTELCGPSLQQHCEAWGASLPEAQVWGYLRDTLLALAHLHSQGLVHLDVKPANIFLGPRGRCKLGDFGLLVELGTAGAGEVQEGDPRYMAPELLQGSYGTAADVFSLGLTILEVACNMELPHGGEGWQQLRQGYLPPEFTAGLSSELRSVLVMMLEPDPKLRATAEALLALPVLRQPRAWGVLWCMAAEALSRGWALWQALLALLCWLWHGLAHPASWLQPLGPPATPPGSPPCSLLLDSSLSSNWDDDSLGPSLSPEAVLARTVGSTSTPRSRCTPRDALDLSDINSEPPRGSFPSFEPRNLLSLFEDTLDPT
Sequence of UniProt P48729 (whole entry, looked up): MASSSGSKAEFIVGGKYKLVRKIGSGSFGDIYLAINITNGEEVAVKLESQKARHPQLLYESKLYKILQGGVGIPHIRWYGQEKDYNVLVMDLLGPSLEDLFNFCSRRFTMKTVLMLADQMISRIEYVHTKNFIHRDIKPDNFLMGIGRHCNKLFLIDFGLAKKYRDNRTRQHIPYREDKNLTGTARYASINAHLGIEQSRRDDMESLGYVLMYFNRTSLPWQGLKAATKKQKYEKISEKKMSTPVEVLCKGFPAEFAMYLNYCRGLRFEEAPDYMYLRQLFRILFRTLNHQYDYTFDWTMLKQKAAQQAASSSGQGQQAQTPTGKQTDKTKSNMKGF
Sequence of UniProt Q15349 (whole entry, looked up): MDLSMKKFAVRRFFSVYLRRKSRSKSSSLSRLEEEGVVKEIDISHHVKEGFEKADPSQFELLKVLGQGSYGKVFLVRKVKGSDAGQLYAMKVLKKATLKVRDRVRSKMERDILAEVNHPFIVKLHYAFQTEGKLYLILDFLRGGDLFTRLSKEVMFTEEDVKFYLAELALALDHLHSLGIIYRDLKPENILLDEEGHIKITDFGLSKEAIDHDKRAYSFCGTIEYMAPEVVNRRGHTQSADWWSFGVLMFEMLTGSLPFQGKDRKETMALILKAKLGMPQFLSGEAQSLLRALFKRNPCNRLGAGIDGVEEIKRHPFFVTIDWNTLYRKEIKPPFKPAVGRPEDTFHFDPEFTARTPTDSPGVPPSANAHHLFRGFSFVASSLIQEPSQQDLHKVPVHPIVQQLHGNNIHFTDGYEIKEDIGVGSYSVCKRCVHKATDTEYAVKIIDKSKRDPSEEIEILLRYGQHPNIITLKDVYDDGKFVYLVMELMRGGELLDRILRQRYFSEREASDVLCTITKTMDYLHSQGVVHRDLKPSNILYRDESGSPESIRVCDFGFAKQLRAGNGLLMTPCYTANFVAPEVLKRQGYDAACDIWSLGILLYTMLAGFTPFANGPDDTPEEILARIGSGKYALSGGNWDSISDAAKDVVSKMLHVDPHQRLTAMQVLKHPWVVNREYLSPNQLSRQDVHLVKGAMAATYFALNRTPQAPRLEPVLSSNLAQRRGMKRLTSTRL
Sequence of UniProt Q9Y6E0 (whole entry, looked up): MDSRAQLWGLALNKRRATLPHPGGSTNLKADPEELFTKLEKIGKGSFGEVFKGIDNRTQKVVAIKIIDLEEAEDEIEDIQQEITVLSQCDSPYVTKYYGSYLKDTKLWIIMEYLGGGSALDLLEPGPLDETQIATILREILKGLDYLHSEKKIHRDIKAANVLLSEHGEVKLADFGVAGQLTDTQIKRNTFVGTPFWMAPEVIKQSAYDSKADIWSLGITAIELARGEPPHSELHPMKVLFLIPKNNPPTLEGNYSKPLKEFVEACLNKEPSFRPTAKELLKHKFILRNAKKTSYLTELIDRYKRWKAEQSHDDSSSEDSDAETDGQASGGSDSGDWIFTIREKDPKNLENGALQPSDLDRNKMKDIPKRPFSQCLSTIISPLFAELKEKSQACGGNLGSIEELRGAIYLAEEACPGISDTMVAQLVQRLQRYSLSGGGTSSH

Block 1
Target: DNA polymerase theta, ATPase domain (POLQ, Homo sapiens, UniProt O75417)
Sequence of UniProt O75417 (whole entry, unmodified, looked up): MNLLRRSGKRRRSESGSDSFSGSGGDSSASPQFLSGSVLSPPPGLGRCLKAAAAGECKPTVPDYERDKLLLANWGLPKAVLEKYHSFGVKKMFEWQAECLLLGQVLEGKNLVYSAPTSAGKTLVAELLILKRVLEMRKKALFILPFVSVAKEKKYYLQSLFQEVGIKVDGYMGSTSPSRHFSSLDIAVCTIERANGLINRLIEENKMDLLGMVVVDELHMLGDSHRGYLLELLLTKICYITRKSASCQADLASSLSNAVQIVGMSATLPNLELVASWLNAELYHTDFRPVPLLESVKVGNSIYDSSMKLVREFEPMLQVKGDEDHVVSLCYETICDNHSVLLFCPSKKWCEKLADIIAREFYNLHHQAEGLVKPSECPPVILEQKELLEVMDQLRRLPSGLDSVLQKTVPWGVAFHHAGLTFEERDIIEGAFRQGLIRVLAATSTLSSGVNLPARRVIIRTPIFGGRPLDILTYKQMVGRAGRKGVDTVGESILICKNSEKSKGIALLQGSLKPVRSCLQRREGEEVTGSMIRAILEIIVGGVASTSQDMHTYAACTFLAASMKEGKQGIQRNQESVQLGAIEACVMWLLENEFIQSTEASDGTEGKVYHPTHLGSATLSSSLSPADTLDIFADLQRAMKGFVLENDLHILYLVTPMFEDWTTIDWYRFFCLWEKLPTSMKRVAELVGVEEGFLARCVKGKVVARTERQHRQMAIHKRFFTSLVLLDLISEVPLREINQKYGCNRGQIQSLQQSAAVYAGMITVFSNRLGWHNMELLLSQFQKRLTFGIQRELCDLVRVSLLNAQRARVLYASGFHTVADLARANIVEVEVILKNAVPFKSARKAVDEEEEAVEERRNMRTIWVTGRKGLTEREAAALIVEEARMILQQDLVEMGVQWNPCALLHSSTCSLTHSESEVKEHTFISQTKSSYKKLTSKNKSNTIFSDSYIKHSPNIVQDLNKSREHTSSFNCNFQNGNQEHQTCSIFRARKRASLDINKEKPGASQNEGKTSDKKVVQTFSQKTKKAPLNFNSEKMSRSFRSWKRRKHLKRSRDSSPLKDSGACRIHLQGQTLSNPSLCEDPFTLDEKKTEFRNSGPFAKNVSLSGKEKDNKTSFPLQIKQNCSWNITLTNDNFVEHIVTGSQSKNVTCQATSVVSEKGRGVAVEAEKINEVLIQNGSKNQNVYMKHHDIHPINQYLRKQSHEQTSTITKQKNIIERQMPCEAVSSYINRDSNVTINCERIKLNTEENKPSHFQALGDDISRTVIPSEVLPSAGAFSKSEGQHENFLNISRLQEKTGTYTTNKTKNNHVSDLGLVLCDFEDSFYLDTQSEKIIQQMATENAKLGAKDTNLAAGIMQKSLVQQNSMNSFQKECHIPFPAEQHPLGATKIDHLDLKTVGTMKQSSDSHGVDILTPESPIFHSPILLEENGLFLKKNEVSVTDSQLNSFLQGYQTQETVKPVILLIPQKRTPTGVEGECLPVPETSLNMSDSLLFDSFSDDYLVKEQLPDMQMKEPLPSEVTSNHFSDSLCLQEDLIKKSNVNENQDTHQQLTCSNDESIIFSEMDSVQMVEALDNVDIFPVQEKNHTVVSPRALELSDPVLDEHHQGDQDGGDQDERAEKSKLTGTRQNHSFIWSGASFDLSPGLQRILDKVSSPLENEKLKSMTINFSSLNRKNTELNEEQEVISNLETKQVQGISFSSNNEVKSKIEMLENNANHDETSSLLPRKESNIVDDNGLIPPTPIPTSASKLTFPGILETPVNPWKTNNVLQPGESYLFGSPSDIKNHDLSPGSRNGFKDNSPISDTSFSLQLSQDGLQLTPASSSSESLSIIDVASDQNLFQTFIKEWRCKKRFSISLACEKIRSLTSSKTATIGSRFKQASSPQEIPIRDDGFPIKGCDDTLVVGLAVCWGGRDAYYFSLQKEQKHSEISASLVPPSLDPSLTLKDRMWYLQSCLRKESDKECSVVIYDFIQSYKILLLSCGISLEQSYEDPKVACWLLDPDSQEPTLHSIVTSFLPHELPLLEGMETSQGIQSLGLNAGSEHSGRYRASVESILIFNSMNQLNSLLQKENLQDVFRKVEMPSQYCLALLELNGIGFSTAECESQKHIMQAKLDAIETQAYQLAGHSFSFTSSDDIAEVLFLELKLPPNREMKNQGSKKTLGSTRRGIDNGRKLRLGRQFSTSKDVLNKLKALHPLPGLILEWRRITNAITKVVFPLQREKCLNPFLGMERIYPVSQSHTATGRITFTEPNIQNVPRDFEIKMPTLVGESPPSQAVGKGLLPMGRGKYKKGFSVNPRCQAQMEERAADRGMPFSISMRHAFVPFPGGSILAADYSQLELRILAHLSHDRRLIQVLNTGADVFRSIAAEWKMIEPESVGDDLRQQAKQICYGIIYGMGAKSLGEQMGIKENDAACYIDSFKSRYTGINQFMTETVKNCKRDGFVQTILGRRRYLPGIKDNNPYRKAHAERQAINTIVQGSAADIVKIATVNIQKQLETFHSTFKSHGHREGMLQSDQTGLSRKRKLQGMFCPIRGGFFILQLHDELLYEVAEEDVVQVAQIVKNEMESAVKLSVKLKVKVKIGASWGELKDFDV
Read-out: enzyme activity
Action: inhibitor
Tested at: 77 µM
Reference: untreated
| SMILES | remaining activity |
| --- | --- |
| O=C(O)c1ccccc1 | 91.8% |
| C[C@@H]1O[C@@H](O[C@H]2[C@H](Oc3cc(O)c4c(c3)O[C@H](c3ccc(O)cc3)CC4=O)O[C@H](CO)[C@@H](O)[C@@H]2O)[C@H](O)[C@H](O)[C@H]1O | 101% and 102% |
| CCNC(=O)c1[nH]nc(-c2cc(Cl)c(O)cc2O)c1-c1ccc(OC)cc1 | 93.6% |
| Nc1cc(C(F)(F)F)c(-c2cc(N3CCOCC3)nc(N3CCOCC3)n2)cn1 | 101% |
| CCOC(=O)Oc1c(OC)cc(C(=O)O[C@@H]2C[C@@H]3CN4CCc5c([nH]c6cc(OC)ccc56)[C@H]4C[C@@H]3[C@H](C(=O)OC)[C@H]2OC)cc1OC | 100% |
| NC(=O)NC1NC(=O)NC1=O (centres unmarked) | 89.9% |
| O=C(O)CNC(=O)C(CS)Cc1ccccc1 (racemic) | 107% |
| Nc1nc(=O)c2c([nH]1)NCC(CNc1ccc(C(=O)N[C@@H](CCC(=O)O)C(=O)O)cc1)N2C=O (mixture of isomers) | 109% |
| CN(C)CCCSC(=N)N | 102% |
| C1CCN2C[C@@H]3C[C@@H](CN4CCCC[C@@H]34)[C@H]2C1 | 101% |
| Clc1ccc(N2CCN(Cc3c[nH]c4ncccc34)CC2)cc1 | 91.2% |

Block 2
Species: mouse
Matrix: microsomes or S9
Tested at: 2 µM
Time: 0.5 h
| Compound | remaining compound [%] |
| --- | --- |
| CC(C)N1N=C(c2nc(-c3ccsc3)no2)CCC1=O | 8.12 |
| Cn1ncc2c1NC(=O)CC2c1cc(Cl)cc2c1OCOC2 (centres unmarked) | 40.9 |
| CO[C@@H]1COC[C@@H]1NC(=O)NC1Cc2ccccc2C1 | 72.1 |
| CCn1c(C)c(C)c2c(-c3ccccc3)c(C(OC(C)(C)C)C(=O)O)c(C)nc21 (centres unmarked) | 91.7 |
| Cc1ccc(S(=O)(=O)NC2c3cccc4cccc(c34)C2Sc2n[nH]c(N)n2)cc1 (centres unmarked) | 1.16 |
| Nc1cc(C2=NOC3CCCCC23)nc(C(=O)O)c1Cl (centres unmarked) | 76.3 |
| c1ccc(-c2csc(-c3nc(-c4cccs4)cs3)n2)cc1 | 50.2 |
| Cc1cnc(C2CC2)n1CCNC(=O)c1ccccn1 | 53.9 |
| N=c1n(CCN2CCCCC2)c2ccccc2n1CC(O)COc1ccccc1 (centres unmarked) | 0.0359 |
| OC(CNc1ncnc2nc[nH]c12)c1ccc2ccccc2c1 (centres unmarked) | 23.3 |

Block 3
SMILES: CO[C@@H](C)c1c(Nc2ccc([C@@H](N(C)C(=O)C3CCS(=O)(=O)CC3)C(F)(F)F)cc2)cnc2cc(Cl)nn12
Tested at: 1 µM
| target | read-out | method | remaining binding [%] |
| --- | --- | --- | --- |
| Tyrosine-protein kinase ABL1, phosphorylated (ABL1, Homo sapiens, UniProt P00519, M351T) | cell-free assay | competition with immobilised ligand | 59 |
| CSNK1A1 (Homo sapiens, UniProt P48729) | cell-free assay | competition with immobilised ligand | 72 |
| CAMK2A (Homo sapiens, UniProt Q9UQM7) | cell-free assay | competition with immobilised ligand | 83 |
| KIT (Homo sapiens, UniProt P10721) | cell-free assay | competition with immobilised ligand | 100 |
| Ribosomal protein S6 kinase alpha-2, C-terminal kinase domain (RPS6KA2, Homo sapiens, UniProt Q15349) | cell-free assay | competition with immobilised ligand | 89 |
| Tyrosine-protein kinase ABL1, phosphorylated (ABL1, Homo sapiens, UniProt P00519, E255K) | binding | competition with immobilised ligand | 75 |
| STK24 (Homo sapiens, UniProt Q9Y6E0) | cell-free assay | competition with immobilised ligand | 89 |
| CDC42BPG (Homo sapiens, UniProt Q6DT37) |  | competition binding | 86 |
| MAPKAPK2 (Homo sapiens, UniProt P49137) | cell-free assay | competition with immobilised ligand | 100 |
| ACVR2A (Homo sapiens, UniProt P27037) | cell-free assay | competition with immobilised ligand | 100 |
| PDGFRA (Homo sapiens, UniProt P16234) | cell-free assay | competition with immobilised ligand | 100 |
| TIE1 (Homo sapiens, UniProt P35590) | cell-free assay | competition with immobilised ligand | 96 |
| FLT3 (Homo sapiens, UniProt P36888, D835H) | cell-free assay | competition with immobilised ligand | 63 |
| LIM domain kinase 1 (LIMK1, Homo sapiens, UniProt P53667) | cell-free assay | competition with immobilised ligand | 92 |
| PKMYT1 (Homo sapiens, UniProt Q99640) | cell-free assay | competition with immobilised ligand | 99 |
| TRPM6 (Homo sapiens, UniProt Q9BX84) | cell-free assay | competition with immobilised ligand | 100 |
| LIM domain kinase 2 (LIMK2, Homo sapiens, UniProt P53671) | cell-free assay | competition with immobilised ligand | 87 |
| TSSK1B (Homo sapiens, UniProt Q9BXA7) | cell-free assay | competition with immobilised ligand | 100 |
| DYRK1B (Homo sapiens, UniProt Q9Y463) | cell-free assay | competition with immobilised ligand | 75 |
| NEK4 (Homo sapiens, UniProt P51957) | cell-free assay | competition with immobilised ligand | 90 |
| MAP4K3 (Homo sapiens, UniProt Q8IVH8) | cell-free assay | competition with immobilised ligand | 94 |
| MARK4 (Homo sapiens, UniProt Q96L34) | cell-free assay | competition with immobilised ligand | 89 |

Block 4
Target: Calcium/calmodulin-dependent protein kinase type II subunit alpha (CAMK2A, Homo sapiens, UniProt Q9UQM7)
Read-out: enzyme activity
Action: inhibitor
Tested at: 10 µM
| Structure (SMILES) | inhibition [%] |
| --- | --- |
| O=c1ccc2c(O)cc(O)cc2o1 | -22 |
| CC(C)CCC(=O)O | -48 |
| COC(=O)c1c2c(c3ccccc3c1O)OC(C)(C)C=C2 | 11 |
| C[C@@]12CCc3occc3[C@H]1CC[C@@]13C[C@@H](CC[C@H]12)[C@@](O)(CO)C3 | 35 |
| CC[C@H](O)C(=O)O | 7 |
| Nc1cc(Cl)c(N=C2NCCN2)c(Cl)c1 | -4 |
| N[C@@H](Cc1c[nH]c2ccccc12)C(=O)O | -3 |
| Nc1cc(N2CCCCC2)nc(N)[n+]1OS(=O)(=O)[O-] | 3 |
| CC(=O)/C=C/C1=C(C)CCCC1(C)C | -25 |
| COc1c(-c2ccccc2)oc2ccccc2c1=O | -3 |

For quick reference, copied from above (block 3):
| target | read-out | method | remaining binding [%] |
| --- | --- | --- | --- |
| TRPM6 (Homo sapiens, UniProt Q9BX84) | cell-free assay | competition with immobilised ligand | 100 |
| STK24 (Homo sapiens, UniProt Q9Y6E0) | cell-free assay | competition with immobilised ligand | 89 |
| Tyrosine-protein kinase ABL1, phosphorylated (ABL1, Homo sapiens, UniProt P00519, M351T) | cell-free assay | competition with immobilised ligand | 59 |
